Measured values of several laboratories.
Protocols differ between the studies behind these lines.

COc1ccc2nc3c(c(N)c2c1)CCCC3  EC50 (SARS-CoV-2; viral replication, GFP plate reader screen; BetaCov/Belgium/GHB-03021/2020; cell-based): 11.5 µM
CCCCN(CCCC)CCCNC(=O)c1cc(-c2ccc(Cl)s2)nc2ccccc12  AC50 (SARS-CoV-2; cytopathic effect, cell-based CPE; USA_WA1/2020; round 2, 5-point dilution): 6.31 µM
CCN(CC)CCOC1(c2ccccc2)CCN(CCNc2ccccc2)CC1  EC50 (SARS-CoV-2; viral replication, GFP plate reader screen; cell-based): 9.55 µM
CC(C)(C)[C@H](NC(=O)C(F)(F)F)C(=O)N1C[C@H]2[C@@H]([C@H]1C(=O)N[C@H](C#N)C[C@@H]1CCNC1=O)C2(C)C  inhibition (SARS-CoV-2; viral replication, infectious virus; Vero E6; 0.33 µM): 92.2%
O=C(O[C@@H]1Cc2c(O)cc(O)cc2O[C@@H]1c1cc(O)c(O)c(O)c1)c1cc(O)c(O)c(O)c1  CPE inhibition (SARS-CoV-2; viral replication; Vero E6; 0.7812 µM; baseline: mean of replicates): 0%
C=C1CC[C@@H]2[C@](C)(CO)[C@H](O)CC[C@@]2(C)[C@@H]1C/C=C1/C(=O)OC[C@H]1O  EC50 (SARS-CoV-2; viral replication, GFP plate reader screen; cell-based): > 100 µM
COc1ccc(-c2cn3c(n2)sc2cc(C(=O)NCCCN4CCCCCC4)ccc23)cc1  efficacy (SARS-CoV-2; cytopathic effect; USA_WA1/2020; retest, 8-point, duplicates): 70.6%
O=C(/C=C/c1ccc(O)c(O)c1/C=C/c1ccc(O)c(O)c1)O[C@H](Cc1ccc(O)c(O)c1)C(=O)O  mean inhibition (SARS-CoV-2; cytopathic effect; Vero E6; 25 µM, replicate run): 0%
COc1cc(Br)c2oc(C3CCNCC3)cc2c1  EC50 (SARS-CoV-2; viral replication, GFP plate reader screen; cell-based): 14.8 µM
CCCCN(CCCNC(=O)c1cc(Nc2ccc(OC)c(OC)c2)nc2ccccc12)Cc1ccccc1  efficacy (SARS-CoV-2; cytopathic effect; USA_WA1/2020; retest, 8-point, duplicates): 11.9%
CC(C)(C)c1cc(C(C)(C)C)c(NC(=O)c2c[nH]c3ccccc3c2=O)cc1O  EC50 (SARS-CoV-2; viral replication, GFP plate reader screen; cell-based): 4.57 µM
COc1ccc(C[C@@H]2c3cc(Oc4cc(C[C@@H]5c6cc(O)c(OC)cc6CCN5C)ccc4O)c(OC)cc3CCN2C)cc1  CPE inhibition (SARS-CoV-2; viral replication; Vero E6; 100 µM): 75%
CN1CCCC2(C1)CN(Cc1cccnc1)c1ccc(C(=O)NCC3CCCCC3)cc12 (stereo not shown)  maximum response (SARS-CoV-2; cytopathic effect; USA_WA1/2020; round 2, 5-point): 91.7%
CC[C@H](C)[C@H](NC(=O)[C@H](CC(C)C)NC(=O)[C@H](Cc1c[nH]c2ccccc12)NC(=O)[C@H](CCC(N)=O)NC(=O)[C@@H](NC(=O)[C@H](Cc1ccccc1)NC(=O)[C@H](C)NC(=O)[C@H](CCCCNC(=O)COCCOCCNC(=O)COCCOCCNC(=O)CC[C@H](NC(=O)CCCCCCCCCCCCCCCCCCC(=O)O)C(=O)O)NC(=O)[C@H](CCC(N)=O)NC(=O)[C@H](C)NC(=O)[C@@H](NC(=O)[C@H](CCCCN)NC(=O)[C@H](CC(=O)O)NC(=O)[C@H](CC(C)C)NC(=O)C(C)(C)NC(=O)[C@@H](NC(=O)[C@H](CO)NC(=O)[C@H](Cc1ccc(O)cc1)NC(=O)[C@H](CC(=O)O)NC(=O)[C@H](CO)NC(=O)[C@@H](NC(=O)[C@H](Cc1ccccc1)NC(=O)[C@@H](NC(=O)CNC(=O)[C@H](CCC(=O)O)NC(=O)C(C)(C)NC(=O)[C@@H](N)Cc1ccc(O)cc1)[C@@H](C)O)[C@@H](C)O)[C@@H](C)CC)[C@@H](C)CC)C(C)C)C(=O)N[C@@H](C)C(=O)NCC(=O)NCC(=O)N1CCC[C@H]1C(=O)N[C@@H](CO)C(=O)N[C@@H](CO)C(=O)NCC(=O)N[C@@H](C)C(=O)N1CCC[C@H]1C(=O)N1CCC[C@H]1C(=O)N1CCC[C@H]1C(=O)N[C@@H](CO)C(N)=O  hypoglycaemia (glucose ≤70 mg/dL) (healthy subjects, single ascending dose; 8.0 mg): 0%
CCCCN(C)CCNC(=O)c1cc(-c2ccc(Cl)s2)nc2ccccc12  maximum response (SARS-CoV-2; cytopathic effect; USA_WA1/2020; round 1, 5-point): 75.5%
CC(C)=CCc1c(O)ccc(C(=O)/C=C/c2ccc(O)cc2)c1O  mean inhibition (SARS-CoV-2; viral cytopathic effect; Vero E6; 6.25 µM): 0%
